Assay results gathered from unrelated publications.
Each line is one published result; not all experiments were run side by side.
Route: intravenous

Structure (SMILES) | system | conditions | Vd
COc1ccc(COc2c(OC)ccc3c2C[C@@H](C(=O)O)N(c2nc4ccc(F)cc4o2)C3)cc1 | male Sprague-Dawley rat, plasma | 1 mg/kg | 0.37 L/kg
COc1cc2ncnc(Oc3ccc(Nc4nccc5[nH]cc(-c6ccc(F)cc6)c(=O)c45)cc3F)c2cc1OC | male Sprague-Dawley rat, plasma | 5 mg/kg | 0.3 L/kg
CSCOC1C(=O)C2(C)C(OCSC)CC3OCC3(OC(C)=O)C2C(OC(=O)c2ccccc2)C2(O)CC(OC(=O)C(O)C(C=C(C)C)NC(=O)OC(C)(C)C)C(C)=C1C2(C)C (stereo not shown) | female Sprague-Dawley rat, plasma | 2 mg/kg | 68.1 L/kg
N=C(N)NCCC[C@H](NC(=O)[C@@H]1CCCN1C(=O)[C@H](Cc1ccccc1)NC(=O)[C@@H]1CCCN1C(=O)[C@H](Cc1c[nH]cn1)NC(=O)[C@@H](N)Cc1ccccc1)C(=O)O | rat, plasma | 10 mg/kg | 72 L/kg
Cc1cc(/C=C2\CN(C(C)C)C/C(=C\c3cc(C)c(O)c(C)c3)C2=O)cc(C)c1O | female Sprague-Dawley rat, plasma | 20 mg/kg | 118 L/kg
COc1ccc(COc2c(OC)ccc3c2C[C@@H](C(=O)O)N(c2nc4ccc(F)cc4o2)C3)cn1 | male Sprague-Dawley rat, plasma | 1 mg/kg | 0.57 L/kg
Cc1ccc(OCC(=O)N(Cc2cccs2)c2ccn[nH]2)cc1 | female Sprague-Dawley rat, plasma | 1 mg/kg, single dose | 2.44 L/kg
CC12CC3CC(C)(C1)CC(NC(=O)Nc1ccc(C(=O)N4CCC[C@H](C(N)=O)C4)cc1F)(C3)C2 | Sprague-Dawley rat, plasma | 10 mg/kg | 3.68 L
COCCCN1CCc2c(Cc3ccc(Cl)cc3)[nH]c3c(OC(F)F)ccc(c23)C1=O | male Sprague-Dawley rat, blood | 2.5 mg/kg | 4.92 L/kg
C=C(C)C(=O)Nc1ccc(-c2c(-c3ccc(Oc4nccc(C)n4)cc3)c3c(N)ncnc3n2C)cc1 | Sprague-Dawley rat, plasma | – | 0.98 L/kg
COC(=O)c1ccc2c(c1)NC(=O)/C2=C(\Nc1ccc2c(c1)CCN2C(=O)CN1CCOCC1)c1ccccc1 | Sprague-Dawley rat, plasma | 2 mg/kg | 1.75 L/kg
C[Si]1(C)CNC(=O)c2ccccc21 | rat, plasma | 1 mg/kg, single dose | 2.8 L/kg
NC(COc1ccccc1C(F)(F)F)c1ccccc1 (stereo not shown) | male Sprague-Dawley rat, serum | 5 mg/kg | 42.5 L/kg

Excerpt of the above:
Structure (SMILES) | system | conditions | Vd
COCCCN1CCc2c(Cc3ccc(Cl)cc3)[nH]c3c(OC(F)F)ccc(c23)C1=O | male Sprague-Dawley rat, blood | 2.5 mg/kg | 4.92 L/kg
